Measurements pooled from the literature.
A part holds a random share of what one study measured. ± gives the spread as reported.
Chain of UniProt O94921 (whole entry, looked up): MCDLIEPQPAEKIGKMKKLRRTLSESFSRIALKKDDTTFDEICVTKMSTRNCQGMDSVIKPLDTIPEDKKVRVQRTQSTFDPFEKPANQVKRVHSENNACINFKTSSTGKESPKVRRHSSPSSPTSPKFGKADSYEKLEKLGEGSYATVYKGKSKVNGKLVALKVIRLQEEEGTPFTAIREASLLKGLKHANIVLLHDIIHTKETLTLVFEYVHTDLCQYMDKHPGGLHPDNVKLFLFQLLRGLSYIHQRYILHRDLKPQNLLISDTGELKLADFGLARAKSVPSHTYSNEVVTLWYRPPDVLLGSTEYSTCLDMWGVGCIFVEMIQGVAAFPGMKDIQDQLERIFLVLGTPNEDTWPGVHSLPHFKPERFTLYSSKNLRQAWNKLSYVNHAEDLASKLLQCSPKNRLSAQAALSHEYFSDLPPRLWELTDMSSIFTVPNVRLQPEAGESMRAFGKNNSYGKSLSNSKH
Chain of UniProt P50750 (whole entry, looked up): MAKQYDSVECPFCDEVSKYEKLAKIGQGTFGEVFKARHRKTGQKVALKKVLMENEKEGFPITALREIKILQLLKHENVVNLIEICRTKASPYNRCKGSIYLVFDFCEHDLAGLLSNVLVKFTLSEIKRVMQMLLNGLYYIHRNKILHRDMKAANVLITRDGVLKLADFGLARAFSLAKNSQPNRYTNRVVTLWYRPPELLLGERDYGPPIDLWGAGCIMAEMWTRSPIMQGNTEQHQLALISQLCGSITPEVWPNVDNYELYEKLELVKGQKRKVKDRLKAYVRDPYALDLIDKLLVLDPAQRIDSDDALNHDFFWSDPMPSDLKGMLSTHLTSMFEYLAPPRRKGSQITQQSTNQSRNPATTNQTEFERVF
Chain of UniProt P51957 (whole entry, looked up): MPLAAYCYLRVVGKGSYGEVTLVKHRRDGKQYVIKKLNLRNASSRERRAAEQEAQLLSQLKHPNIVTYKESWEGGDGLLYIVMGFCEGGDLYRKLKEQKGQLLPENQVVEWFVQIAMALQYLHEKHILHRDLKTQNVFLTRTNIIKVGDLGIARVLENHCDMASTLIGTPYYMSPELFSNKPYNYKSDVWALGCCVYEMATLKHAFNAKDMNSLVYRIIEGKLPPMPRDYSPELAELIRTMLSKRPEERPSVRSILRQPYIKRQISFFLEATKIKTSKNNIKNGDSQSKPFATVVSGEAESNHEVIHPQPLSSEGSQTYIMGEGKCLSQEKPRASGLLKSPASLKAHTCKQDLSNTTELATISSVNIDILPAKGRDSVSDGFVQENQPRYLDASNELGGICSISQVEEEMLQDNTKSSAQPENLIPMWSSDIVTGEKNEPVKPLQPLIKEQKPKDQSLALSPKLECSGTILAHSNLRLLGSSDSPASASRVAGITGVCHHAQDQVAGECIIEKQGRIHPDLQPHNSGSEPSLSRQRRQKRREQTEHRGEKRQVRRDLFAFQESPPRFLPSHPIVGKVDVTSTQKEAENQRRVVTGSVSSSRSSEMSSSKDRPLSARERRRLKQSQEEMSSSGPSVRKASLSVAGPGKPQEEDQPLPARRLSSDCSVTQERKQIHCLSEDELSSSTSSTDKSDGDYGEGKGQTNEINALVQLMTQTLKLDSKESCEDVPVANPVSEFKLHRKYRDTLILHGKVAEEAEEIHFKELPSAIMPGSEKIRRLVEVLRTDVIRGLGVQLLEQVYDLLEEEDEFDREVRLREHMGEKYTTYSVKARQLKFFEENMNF
Chain of UniProt Q5S007 (whole entry, looked up): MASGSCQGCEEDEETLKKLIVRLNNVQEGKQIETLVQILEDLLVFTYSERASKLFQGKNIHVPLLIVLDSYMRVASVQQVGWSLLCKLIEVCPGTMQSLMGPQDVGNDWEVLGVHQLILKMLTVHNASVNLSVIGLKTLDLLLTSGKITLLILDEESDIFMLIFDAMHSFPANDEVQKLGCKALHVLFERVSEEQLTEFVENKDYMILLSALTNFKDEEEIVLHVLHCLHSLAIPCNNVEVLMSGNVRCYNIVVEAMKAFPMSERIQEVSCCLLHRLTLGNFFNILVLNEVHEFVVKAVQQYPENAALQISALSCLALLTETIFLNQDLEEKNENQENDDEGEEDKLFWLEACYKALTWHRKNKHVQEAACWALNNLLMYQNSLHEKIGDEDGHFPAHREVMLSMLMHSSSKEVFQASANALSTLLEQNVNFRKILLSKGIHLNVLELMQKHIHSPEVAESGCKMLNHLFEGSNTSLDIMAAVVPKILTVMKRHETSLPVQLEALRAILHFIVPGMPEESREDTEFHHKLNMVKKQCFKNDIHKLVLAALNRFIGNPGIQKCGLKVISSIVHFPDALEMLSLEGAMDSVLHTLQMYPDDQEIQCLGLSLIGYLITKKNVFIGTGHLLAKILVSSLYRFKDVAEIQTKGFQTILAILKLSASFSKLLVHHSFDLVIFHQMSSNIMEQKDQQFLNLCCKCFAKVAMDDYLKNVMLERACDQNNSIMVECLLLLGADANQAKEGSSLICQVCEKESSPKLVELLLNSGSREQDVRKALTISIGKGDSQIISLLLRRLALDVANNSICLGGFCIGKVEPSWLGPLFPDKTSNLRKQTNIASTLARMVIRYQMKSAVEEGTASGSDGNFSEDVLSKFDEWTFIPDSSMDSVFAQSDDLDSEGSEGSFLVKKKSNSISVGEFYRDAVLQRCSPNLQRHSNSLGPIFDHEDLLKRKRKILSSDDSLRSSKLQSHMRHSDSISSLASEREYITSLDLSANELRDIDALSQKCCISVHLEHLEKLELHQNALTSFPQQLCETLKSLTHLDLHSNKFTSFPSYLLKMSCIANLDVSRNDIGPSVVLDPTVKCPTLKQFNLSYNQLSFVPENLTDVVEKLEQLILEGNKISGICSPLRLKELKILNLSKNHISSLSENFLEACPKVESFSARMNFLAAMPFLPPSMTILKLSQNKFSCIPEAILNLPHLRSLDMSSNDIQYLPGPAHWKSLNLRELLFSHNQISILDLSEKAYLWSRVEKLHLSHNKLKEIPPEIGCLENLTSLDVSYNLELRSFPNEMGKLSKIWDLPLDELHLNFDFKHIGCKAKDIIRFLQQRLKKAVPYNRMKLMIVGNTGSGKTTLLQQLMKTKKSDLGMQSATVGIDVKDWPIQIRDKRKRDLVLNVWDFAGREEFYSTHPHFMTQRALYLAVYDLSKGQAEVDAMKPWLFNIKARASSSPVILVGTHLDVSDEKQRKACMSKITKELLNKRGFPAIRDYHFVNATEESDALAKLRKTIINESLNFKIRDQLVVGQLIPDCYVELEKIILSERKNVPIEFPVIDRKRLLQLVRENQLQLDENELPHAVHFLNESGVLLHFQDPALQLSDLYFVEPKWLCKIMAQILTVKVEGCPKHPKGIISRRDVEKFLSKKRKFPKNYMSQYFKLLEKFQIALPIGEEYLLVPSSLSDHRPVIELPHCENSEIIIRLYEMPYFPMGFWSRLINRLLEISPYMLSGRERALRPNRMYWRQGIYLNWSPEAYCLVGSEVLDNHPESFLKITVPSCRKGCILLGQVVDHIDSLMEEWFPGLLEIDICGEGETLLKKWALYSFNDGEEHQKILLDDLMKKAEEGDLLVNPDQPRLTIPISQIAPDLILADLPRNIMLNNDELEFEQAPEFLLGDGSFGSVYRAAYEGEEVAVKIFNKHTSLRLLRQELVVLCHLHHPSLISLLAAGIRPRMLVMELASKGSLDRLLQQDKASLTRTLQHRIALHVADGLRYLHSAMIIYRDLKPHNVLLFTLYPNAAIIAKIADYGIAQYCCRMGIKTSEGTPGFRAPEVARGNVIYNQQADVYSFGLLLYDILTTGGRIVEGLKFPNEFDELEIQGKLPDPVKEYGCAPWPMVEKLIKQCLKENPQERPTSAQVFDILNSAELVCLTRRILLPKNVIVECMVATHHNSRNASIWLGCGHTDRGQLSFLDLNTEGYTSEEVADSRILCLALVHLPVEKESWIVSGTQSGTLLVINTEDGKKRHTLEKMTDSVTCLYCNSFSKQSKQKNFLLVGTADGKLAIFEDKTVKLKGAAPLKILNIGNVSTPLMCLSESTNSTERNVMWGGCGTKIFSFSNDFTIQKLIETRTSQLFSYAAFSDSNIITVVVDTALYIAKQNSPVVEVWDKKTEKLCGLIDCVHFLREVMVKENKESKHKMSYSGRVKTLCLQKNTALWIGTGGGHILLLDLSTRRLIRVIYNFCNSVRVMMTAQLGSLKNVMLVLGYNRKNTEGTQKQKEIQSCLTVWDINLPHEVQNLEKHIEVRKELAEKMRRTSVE
Chain of UniProt Q8NEB9 (whole entry, looked up): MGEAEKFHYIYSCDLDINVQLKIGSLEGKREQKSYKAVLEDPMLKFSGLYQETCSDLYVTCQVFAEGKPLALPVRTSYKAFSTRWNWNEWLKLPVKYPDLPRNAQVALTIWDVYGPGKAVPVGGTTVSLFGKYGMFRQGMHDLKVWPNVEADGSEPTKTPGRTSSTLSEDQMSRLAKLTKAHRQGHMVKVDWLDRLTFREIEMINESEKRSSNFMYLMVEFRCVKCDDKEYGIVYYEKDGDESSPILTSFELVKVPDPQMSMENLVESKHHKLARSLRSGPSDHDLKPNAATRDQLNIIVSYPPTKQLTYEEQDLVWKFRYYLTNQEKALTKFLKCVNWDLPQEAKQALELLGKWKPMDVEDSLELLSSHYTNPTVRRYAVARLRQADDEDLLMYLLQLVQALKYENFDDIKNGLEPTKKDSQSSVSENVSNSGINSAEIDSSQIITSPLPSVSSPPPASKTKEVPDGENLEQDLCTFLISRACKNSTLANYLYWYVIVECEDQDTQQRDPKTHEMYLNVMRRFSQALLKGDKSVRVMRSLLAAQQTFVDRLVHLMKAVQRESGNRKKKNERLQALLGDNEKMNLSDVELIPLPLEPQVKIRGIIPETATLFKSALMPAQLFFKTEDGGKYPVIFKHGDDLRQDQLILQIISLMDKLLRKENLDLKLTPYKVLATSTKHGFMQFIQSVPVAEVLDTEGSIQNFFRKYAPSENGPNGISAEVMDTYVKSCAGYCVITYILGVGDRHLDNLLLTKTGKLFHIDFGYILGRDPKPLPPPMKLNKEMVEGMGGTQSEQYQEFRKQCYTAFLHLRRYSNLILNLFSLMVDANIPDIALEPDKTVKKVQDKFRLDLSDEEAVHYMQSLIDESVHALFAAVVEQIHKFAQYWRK

Study 1 — host: human; sample: microsomes or S9; tested at: 2 µM; time: 0.5 h
Structure (SMILES) | remaining compound [%]
Cc1ccc2cc(CNCC3COCCO3)c3nnnn3c2c1 (centres unmarked) | 86.1
COc1ccc(OC)c(NC(=O)C2Cn3cccc3C(=O)N2C)c1 (centres unmarked) | 54.6
Clc1nc(N2CCN(c3ccccn3)CC2)c2nc[nH]c2n1 | 66.9
CC(c1ccncn1)N(C)C(=O)c1ccc(OC2CCN(CCc3ccccc3)CC2)cc1 (centres unmarked) | 9.55
Clc1ncccc1-c1nc2ccccc2c2c(Br)cnn12 | 23.5
CCCC(=O)OCCNc1cc(SCC(=O)OCC)c2nonc2c1[N+](=O)[O-] | 0.00607
Cc1cc(C)n(CCCN(C)Cc2cn(C(C)C)c3cc(F)ccc23)n1 | 4.7
O=c1c(C(c2ccncc2)c2c(O)nc3n(c2=O)CCCS3)c(O)nc2n1CCCS2 | 86.1
Cc1ccc(-c2ccccc2CN2C[C@@H](CN(C)C)[C@@H](CO)C2)o1 | 43.1

Study 2 — Compound: O=C1Cc2c([nH]c3ccc(Br)cc23)-c2ccccc2N1; observed: enzyme activity; mode: inhibitor; tested at: 0.5 µM; relative to: control
target | remaining activity
EPHA5 (Homo sapiens, UniProt P54756) | 96.6%
LRRK2 (Homo sapiens, UniProt Q5S007) | 78.7%
AKT3 (Homo sapiens, UniProt Q9Y243) | 105%
IRAK4 (Homo sapiens, UniProt Q9NWZ3) | 88.2%
MAP4K2 (Homo sapiens, UniProt Q12851) | 20.1%
PRKCI (Homo sapiens, UniProt P41743) | 89.1%
BTK (Homo sapiens, UniProt Q06187) | 98%
NEK4 (Homo sapiens, UniProt P51957) | 98.9%
MKNK2 (Homo sapiens, UniProt Q9HBH9) | 102%
Cyclin-dependent kinase 9, with cyclin T1 (CDK9, Homo sapiens, UniProt P50750) | 31.3%
PRKCD (Homo sapiens, UniProt Q05655) | 92.7%
MAP2K6 (Homo sapiens, UniProt P52564) | 95.3%
KIT (Homo sapiens, UniProt P10721) | 90.3%
LYN (Homo sapiens, UniProt P07948) | 67.2%
CSNK2A1 (Homo sapiens, UniProt P68400) | 79.1%
PLK2 (Homo sapiens, UniProt Q9NYY3) | 99.1%
PRKG1 (Homo sapiens, UniProt Q13976) | 95.9%
STK38 (Homo sapiens, UniProt Q15208) | 98.6%
MAPK13 (Homo sapiens, UniProt O15264) | 103%
WNK2 (Homo sapiens, UniProt Q9Y3S1) | 112%
CHEK1 (Homo sapiens, UniProt O14757) | 89%

Study 3 — observed: kinase activity
SMILES: COc1cc(C(=O)N2CCC(N3CCN(C)CC3)CC2)ccc1Nc1ncc2c(n1)N(C)c1ccccc1C(=O)N2C
target | setting | remaining activity [%]
NEK6 | 1 µM | 90 ± 18
PAK4 | 10 µM | 108 ± 10
SmMLCK | 10 µM | 25 ± 30
PAK2 | 10 µM | 110 ± 7
ERK2 | 1 µM | 83 ± 3
IGF-1R | 10 µM | 90 ± 4
TBK1 | 1 µM | 94 ± 6
PDK1 | 10 µM | 83 ± 11
PKD1 | 10 µM | 40 ± 20
EPH-B4 | 1 µM | 90 ± 7

Study 4 — observed: cell-free assay; technique: competition with immobilised ligand; tested at: 1 µM
SMILES: CCCCN(CCCC)C(=O)CN1C[C@@H](c2cc(OC)c3c(c2)OCO3)[C@H](C(=O)O)[C@H]1CC(C)(C)CCC
target | remaining binding
TNK2 (Homo sapiens, UniProt Q07912) | 91.6%
CDK11B (Homo sapiens, UniProt P21127) | 100%
ROCK2 (Homo sapiens, UniProt O75116) | 100%
PIK3C2B (Homo sapiens, UniProt O00750) | 73.6%
PIK3CB (Homo sapiens, UniProt P42338) | 100%
CDK14 (Homo sapiens, UniProt O94921) | 100%
PI4KB (Homo sapiens, UniProt Q9UBF8) | 97.6%
TSSK3 (Homo sapiens, UniProt Q96PN8) | 100%
STK16 (Homo sapiens, UniProt O75716) | 100%
PIK3C3 (Homo sapiens, UniProt Q8NEB9) | 98.7%

Excerpt of the above (study 2):
target | remaining activity
CSNK2A1 (Homo sapiens, UniProt P68400) | 79.1%
MKNK2 (Homo sapiens, UniProt Q9HBH9) | 102%
LRRK2 (Homo sapiens, UniProt Q5S007) | 78.7%
